Experimental data collected from several papers.
Each numbered part is a random draw from the data of one study; scales do not carry over between parts. Substitutions count along the parent as printed.

Block 1
Target: ABI1, truncated, D143A, DHFR fusion (Arabidopsis thaliana)
Method: DHFR PCA, deep sequencing
Sample: yeast
Notes: methotrexate growth selection, single substitutions
With: (+)-ABA 0 µM
Baseline: wild-type fitted maximum
Reading: higher = stronger binding
Parent: PYL1, truncated, DHFR fusion (Arabidopsis thaliana); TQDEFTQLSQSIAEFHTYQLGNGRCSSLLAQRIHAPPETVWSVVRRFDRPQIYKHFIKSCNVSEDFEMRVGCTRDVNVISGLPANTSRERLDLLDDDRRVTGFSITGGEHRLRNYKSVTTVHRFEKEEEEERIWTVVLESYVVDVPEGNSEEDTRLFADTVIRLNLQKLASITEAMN; partner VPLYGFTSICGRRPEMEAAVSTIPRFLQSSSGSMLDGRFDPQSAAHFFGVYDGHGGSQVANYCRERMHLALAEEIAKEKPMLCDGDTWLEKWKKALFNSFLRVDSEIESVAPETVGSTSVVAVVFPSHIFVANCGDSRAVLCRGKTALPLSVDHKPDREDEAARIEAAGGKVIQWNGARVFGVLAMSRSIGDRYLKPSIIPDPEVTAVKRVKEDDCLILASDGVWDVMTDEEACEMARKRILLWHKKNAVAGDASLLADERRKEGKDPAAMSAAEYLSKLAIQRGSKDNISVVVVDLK
Substitution	relative binding score
I52N	3.52%
E14Y	0.00137%
R155H	-0.392%
F47K	-2.46%
T106N	-9.29%
D95W	-3.63%
G21H	14.8%
S150Q	9.44%
V43H	-6.57%
D95Y	-7.79%
R155C	2.92%
V78C	33.4%
R46S	3.86%
D65K	3.99%
D144W	-10.1%
E4H	12.4%
V145T	-5%
T119G	-2.39%
V137M	1.94%
Y141L	-0.684%
T173P	0.00123%
Q31F	-1.5%
G102K	-0.968%
Y18F	1.54%
E4T	11%

Block 2
Target: Ras GTPase-activating protein-binding protein 1, full length (G3BP1, Homo sapiens, UniProt Q13283)
Sequence of UniProt Q13283 (whole entry, looked up): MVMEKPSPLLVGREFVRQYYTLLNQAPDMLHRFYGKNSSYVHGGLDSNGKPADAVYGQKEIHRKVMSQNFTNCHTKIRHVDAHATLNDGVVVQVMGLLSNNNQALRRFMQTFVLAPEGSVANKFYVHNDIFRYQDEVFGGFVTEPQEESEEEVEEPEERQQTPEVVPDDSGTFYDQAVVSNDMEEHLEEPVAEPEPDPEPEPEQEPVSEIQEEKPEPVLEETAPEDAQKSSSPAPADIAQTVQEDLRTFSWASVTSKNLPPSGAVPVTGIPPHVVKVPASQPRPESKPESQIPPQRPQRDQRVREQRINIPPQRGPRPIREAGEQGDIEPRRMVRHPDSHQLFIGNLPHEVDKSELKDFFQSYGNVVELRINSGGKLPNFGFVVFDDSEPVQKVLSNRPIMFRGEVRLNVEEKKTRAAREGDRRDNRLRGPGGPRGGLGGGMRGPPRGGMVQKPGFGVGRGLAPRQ
Method: RNA Bind-n-Seq
Molecule type: RNA
Sample: in vitro
Concentration: 200 nM
Notes: whole 134-nt RNA, ends assumed
With: 150 mM KCl
Baseline: input library
Reading: higher = stronger binding
Strand	log2 enrichment
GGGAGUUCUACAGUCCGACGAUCAAGUCCUGUGCUACACAUCGUAUGUACCGAAUCGGGAAAAGGGAAAAGGAAAAGGGGAAAGUAUUAUGUUACGCCGUUCGGAUCUGCACUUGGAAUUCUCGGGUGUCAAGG	-0.357
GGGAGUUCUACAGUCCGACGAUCUCCUGUGCUACACAUCGUAUGUACCGAAUCAAAUUUUUUUAAAUUUUUAAAUUUUUAAAAAAGUAUUAUGUUACGCCGUUCGGAUCUGCAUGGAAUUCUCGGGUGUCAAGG	-0.734
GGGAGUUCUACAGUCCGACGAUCUCCUGUGCUACACAUCGUAUGUACCGAAUCGGGCCCCCGGGGCCCCCGGGCCCCCGGGGAAAGUAUUAUGUUACGCCGUUCGGAUCUGCAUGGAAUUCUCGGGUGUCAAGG	-0.768
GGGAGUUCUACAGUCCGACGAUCUGGCCCUGGUAGCAUGCGGGGAGGAAGAGGUGGCCUCAUGGAUCGUGGUGGUCCCGGUGGAAUGUUCAGAGGUGGCCGUGGUGGAGACAGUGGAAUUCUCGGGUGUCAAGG	0.144
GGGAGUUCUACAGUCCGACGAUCUGGCCCUGGUGGCAUGCGGGGAGGAAGAGGUGGCCUCAUGGAUCGUGGUGGUCCCGGUGGUAUGUUCAGAGGUGGCCGUGGUGGAGACAGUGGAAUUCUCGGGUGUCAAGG	0.182
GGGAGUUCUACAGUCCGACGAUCGUCCUGUGCUACACAUCGUAUGUACCGAAUCGGGGAAAAAGGGGAGGGGUUUUUGGGGAAAGUAUUAUGUUACGCCGUUCGGAUCUGCACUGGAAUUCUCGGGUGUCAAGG	0.205
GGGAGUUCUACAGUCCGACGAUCCUGUGCUACACAUCGUAUGUACCGAAUCGGGGAAAAAAAGGGAAAAAAAGGGGAAAAAAAGGAAAGUAUUAUGUUACGCCGUUCGGAUCUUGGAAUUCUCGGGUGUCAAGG	-0.678
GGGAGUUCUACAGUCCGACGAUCCCUCAAGUCCUGUGCUACACAUCGUAUGUACCGAAUCGGGAGGAGGGGAGGGGAAAGUAUUAUGUUACGCCGUUCGGAUCUGCACUUCCAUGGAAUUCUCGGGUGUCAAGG	1.32
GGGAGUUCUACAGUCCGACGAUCGUCCUGUGCUACACAUCGUAUGUACCGAAUCGGAAAAAAGGAAAAAAGGGAAAAAAGGGAAAGUAUUAUGUUACGCCGUUCGGAUCUGCAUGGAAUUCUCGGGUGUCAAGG	-0.938
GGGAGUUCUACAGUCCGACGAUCGUCCUGUGCUACACAUCGUAUGUACCGAAUCGGUUUUUUUGGUUUUUUUGGUUUUUGGAAAGUAUUAUGUUACGCCGUUCGGAUCUGCACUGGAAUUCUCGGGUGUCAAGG	-1.18
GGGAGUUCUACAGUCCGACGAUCCACAGACAACACGCACCCACACAGACACAGAGGGAAGGGGUUGGGAUGGGGACAGGGUGCACAGCAGGGCGUGGUAGGACCCCAGCCCCUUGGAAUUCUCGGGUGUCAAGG	1.95
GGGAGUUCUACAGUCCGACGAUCGUCCUGUGCUACACAUCGUAUGUACCGAAUCGGGAAAAAGGGGAAAAAGGGAAAAAGGGAAAGUAUUAUGUUACGCCGUUCGGAUCUGCAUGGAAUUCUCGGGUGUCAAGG	-0.259
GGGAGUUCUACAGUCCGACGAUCUCCUGUGCUACACAUCGUAUGUACCGAAUCGGGGUGGGGAAAAAAAGGGGAAAAAGGGGAAAGUAUUAUGUUACGCCGUUCGGAUCUGCAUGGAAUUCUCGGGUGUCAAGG	0.682
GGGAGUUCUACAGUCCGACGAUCCAACUUUAGAGGAGGAUCUGAUGGAUAUGGCAGUGGACGUGGAUUUGGGGAUGGCUAUAAUGGGUAUGGAGGAGGACCUGGAGGUGGCAAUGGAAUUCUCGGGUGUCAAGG	0.508

Block 3
Target: RING finger protein unkempt homolog, zinc fingers 1-6, GST-SBP tag (UNK, Homo sapiens, UniProt Q9C0B0, residues 30-357)
Method: RNA Bind-n-Seq
Molecule type: RNA
Sample: in vitro
Concentration: not given
Notes: RNA with constant flanks, human-mouse chimeric sites, ends assumed
Baseline: input RNA pool
Reading: higher = stronger binding
Construct (chain): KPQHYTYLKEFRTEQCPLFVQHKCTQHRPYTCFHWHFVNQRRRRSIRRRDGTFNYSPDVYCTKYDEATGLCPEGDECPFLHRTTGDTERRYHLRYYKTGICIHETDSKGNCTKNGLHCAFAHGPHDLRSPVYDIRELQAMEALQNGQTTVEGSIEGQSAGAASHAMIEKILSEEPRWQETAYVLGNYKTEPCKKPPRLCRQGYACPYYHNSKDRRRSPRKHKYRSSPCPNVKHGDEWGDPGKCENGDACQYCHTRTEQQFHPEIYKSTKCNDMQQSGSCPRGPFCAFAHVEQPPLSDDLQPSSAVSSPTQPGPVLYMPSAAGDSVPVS
Strand	bound/input enrichment [ratio]
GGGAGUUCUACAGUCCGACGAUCUUAAUCCCCUUUACUGCUCCCCCACUUCUCAUGGUAAUAACAAAGUCUUAUAUCCCCGUCCUAGCUUUUACUCAGAUGGCUUAUGGAGCCGGUUUCCUAUCUUUCUUGGGAGGGAUCAGACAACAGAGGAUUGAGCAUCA	0.719
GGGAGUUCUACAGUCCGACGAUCACCUCCCCCUCCCGCCUCACCCCACCCCCGCUUUUUGGAAAGUUUUUGGCUUUUUUUUUCCUUCCCCAUACAAAGUGAUUACAGUUUCCCCCGCAAGGGUCUAUCGAUUCACCCUUCGGACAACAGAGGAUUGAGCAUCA	1.38
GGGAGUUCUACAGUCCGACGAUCGGGACUGAUUCAUCCCAAGGACAGGCCACCCCAUUUGAUGCCUGGACUGAUGACAGUAUGGAAGGGCCUAGUCAAAAUUUUGAAGCUGAGUCAAUUCAAGAUAAUGCGAGUAUGGAAGAGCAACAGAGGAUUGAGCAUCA	0.483
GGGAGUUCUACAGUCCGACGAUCGGUGGGGUGGUCAUUGCGCCAAUUGAGGCUGAUUUUCUUAUGAAUCAUUCAAAACUCUCGUGUAGGGUUGACAAUGUGGGGGGGUGGGGGAUCCAGCUUAUUCUUUUAUUUUCAAGUCCACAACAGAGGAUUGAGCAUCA	0.86
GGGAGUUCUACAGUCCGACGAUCUCUUUGUGUAACUUAUCUCUGUAAAAGUCCCCCCCCCUACUGUCAAAAAAUAUGCAUGUAUAGUAAUUAGGACUUCAUUCCUCCAUGUUUUCUUCCCUUAUCUUACUGUCAUUGUCCUUACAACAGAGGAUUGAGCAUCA	2.11
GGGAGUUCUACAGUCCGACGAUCAGAGAAAUGAGAAAGAAUCUUACACAAGAAGAGAUGCAAAGAAUGUCUACUAGAGUCCUUUUAGCCACUCUUUCCAUUCCUAUUACUCCUGAGCGUACUGAUAUUGCUCGACUUUUGGAUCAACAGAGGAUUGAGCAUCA	0.144
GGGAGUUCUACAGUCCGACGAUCGCUCUUGGCAAUGUAAUCAGCGCCUUGGGAGACAAGAGCAAGAGAGCCACCCAUGUCCCUUACAGAGACUCUAAGCUGACAAGACUCUUGCAGGAUUCCCUUGGGGGUAACAGCCAAACCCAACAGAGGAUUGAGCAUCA	0.107
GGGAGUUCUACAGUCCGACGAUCAGGAGGAGGUUAAAGGGUGAAAAUGGGGUGGAAGACUGUGUCAUGGCUCUGGAGACACUGUUCAGUGUCCUGCUUUCUCUGUGCAGACUUAUGGCUCCUUACACGCCCUUUCUGACUGAGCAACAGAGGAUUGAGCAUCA	0.0783
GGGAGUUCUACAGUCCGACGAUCGUAUACGGUUAUCGAGGAAAGGACUGUAGAGCGAAUGUAUACCUGCUUCCCACAGGGGAGAUAGUUUAUUUUAUCGCCUCAGUGGUAGUACUAUUUAAUUAUGAGGAGAGGACUCAGCGACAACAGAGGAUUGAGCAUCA	2.89
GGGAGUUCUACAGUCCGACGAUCCCUCCCCCGGGCCACCCACCCCUCCCGCUCCCAGCGGGAGAUCCAGGUUUCUUCUUAUUUCAUAGCAAAUAAGAAAAAUGUUCUACGCACAUUUUGUCCUCAGUAAACGAGGGCCUCUGGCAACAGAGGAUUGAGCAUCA	0.328
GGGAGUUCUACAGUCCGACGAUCAGCGUUCAGGAAUUCAUGACCUUUACAAGUCAACUGAUUGUGGAACGCUCGGGGAAAGGCAGCAGAGCUUCUGUCAAAGAACAAGACUAUCUUUGCCAUGUCUACGUCCGGAGCGACAGUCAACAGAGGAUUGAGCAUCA	0.0759

Block 4
Target: CCND2, cyclin fold, Cln2 fusion (human)
Method: yeast growth competition, sequencing
Sample: yeast
Notes: weak parent motif
Baseline: not given
Reading: higher = stronger binding
Parent: CDC6 docking peptide (human); TLKGRRLVFDNQL
Substitution	normalised enrichment score
L7I	0.635
L7G	-0.0685
L7D	-0.175
L7A	0.136
N11Q	0.552
V8S	0.274
Q12T	0.132
L2K	0.369
F9E	0.452
N11R	0.476
G4H	0.182
T1C	0.234
F9W	0.305
N11V	0.349

For quick reference, copied from above (block 4):
Substitution	normalised enrichment score
N11Q	0.552
V8S	0.274
L7A	0.136
L7G	-0.0685
N11V	0.349
L7D	-0.175
L2K	0.369
Q12T	0.132
L7I	0.635
